Measurements of several laboratories.
Every numbered part comes from another study and shows a few of its results, in no order. Positions count from the first letter of the parent shown.

Set 1
Target: RNA binding protein fox-1 homolog 2, RRM domain, GST-SBP tag (RBFOX2, Homo sapiens, UniProt O43251-10, residues 100-194)
Technique: RNA Bind-n-Seq
Form: RNA
Matrix: in vitro
Concentration: 365 nM
Setting: natural RNA segment, single round, ends assumed
Relative to: no-protein control
Reading: higher = stronger binding
Target sequence (chain): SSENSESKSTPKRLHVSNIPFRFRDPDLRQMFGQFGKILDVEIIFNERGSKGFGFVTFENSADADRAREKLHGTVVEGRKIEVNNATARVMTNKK
Sequence	RBNS enrichment (R)
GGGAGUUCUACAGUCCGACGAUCCACCUGUGAGGAGAGUUGGGGCCCAGCCGUCUUCCUGGCCUCCUUCCUUUCCUCGUGGCAGAGGCCUGCAUGUGGGUGCCAGAGGCCAGCUCUCCCCCUCCAUCUUGGGGUGGAAUUCUCGGGUGCCAA	3.6
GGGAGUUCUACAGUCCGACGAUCCUGAACUAAACCCCUGGCUUUUGUGCACACUGCAUACGUUUCAGAACUCCUGGAUGGUAACCAUCUCUGGAGUGCAGCGCUUGCUGCAGUGGAAAUGAUCAGGAAUACUGUGGAAUUCUCGGGUGCCAA	0.246
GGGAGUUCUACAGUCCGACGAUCCUGUUCUUGCGGGGGAUAAAAAAGGGCUUGGGAGAUUCAUGCGAUGUGUCCAAUCGGAGACAAAAGCAGUUUCUCUCCAACUCCCUCUGGGAAGGUGACCUGGCCAGAGCUGGAAUUCUCGGGUGCCAA	0.297
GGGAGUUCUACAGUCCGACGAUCGGGCAUUGUGGCAGAAUUUUAGGAAGGCAUUGUACAGCCUCUAAGCAUAUCUAAGUGCCAUGAAUACAUUUUCCCUACUCUAUAGCAUAGCUCUGUAAAACUUGUCCUGUUGGAAUUCUCGGGUGCCAA	0.367
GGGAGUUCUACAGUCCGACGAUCCCCCAGGACUCCCGCCCACACUCCUUUGGGCUGCUGCCUGCCUGGCUAGCUCUGUCCAGAUAGGACCUGAGGAAGCCACCUUGUAGGGAGCCUUGUGUGUGGCCAGGGACUGGAAUUCUCGGGUGCCAA	0.328
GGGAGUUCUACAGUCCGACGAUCGGGCUUCUGAGGUGGCCUCCUGCCCUGAUCAGGGACCCUCCCCGCUUUCCUGGGCCUCUCAGUUGAACAAAGCAGCAAAACAAAGGCAGUUUUAUAUGAAAGAUUAGAAGUGGAAUUCUCGGGUGCCAA	0.619
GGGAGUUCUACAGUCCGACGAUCCCCCUGCAUGGCAGGACCCCUGUGCUUCAGUUCUAAUAAAUCUGAAUUUGGCUGUGCAAAGUCCCCUAGCCAUGCUCGCAGGAGGGCGAUGUCCAGGGCAGCUUCUAGUCUGGAAUUCUCGGGUGCCAA	1.03
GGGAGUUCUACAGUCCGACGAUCCCUGUCCGUCAGAGACUUCUCAAUCCAGUGGCAGUUGGGAUGGGGUUAUGAGGCCUGUCAGGUCUAUGCACAGCAGGGACUCUGUCUUUGGUGAGCUUUCUCAGAGCCAUUGGAAUUCUCGGGUGCCAA	0.286
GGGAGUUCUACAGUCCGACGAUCCUGUUCUGGAACUUGCUCUGAAGACCAGGCUGACCUCGAACUCAGAGAUCUGCCUGCCUCUGCUUCCCAAGUGCUGGGAUUAAAGGCAUGCGCCACCUUCACCUGGGUUUUGGAAUUCUCGGGUGCCAA	0.385
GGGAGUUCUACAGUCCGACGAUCGGUGGCCCACAAAGCCUUACACAAGGCGAGAUGUCAAUGAAGGGGUUGGCCUGUGUGUUCCAUCUCUGCUCACCUCUGCCUCUACUCUGAGAUGCAGCCUGGCUGAUCCUUGGAAUUCUCGGGUGCCAA	0.252
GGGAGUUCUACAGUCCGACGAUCCUUGUAGGAAGAUCUUUUGUAUCAGGAACAUGUACACUAGGCCCUGUUCCCGUCCACAAGCUGAGCCAUAUGUACAUAAGCUAGACUGUUUUCUUAGGUGUGCACUUUUAUGGAAUUCUCGGGUGCCAA	0.516
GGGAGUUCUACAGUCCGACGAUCUGUCACCGAGGCACCUGUCUCAGCUAGGACUCAGUUUCUCUUUCUGAGGUCGGCGUUAUUUCCUCUCUCCCCCCACGUCAUCCUCCUCCGACACUGACGUCCACCGUGCAUGGAAUUCUCGGGUGCCAA	1.42

Set 2
Target: CCNB3, cyclin fold, Cln2 fusion (human)
Technique: yeast growth competition, sequencing
Matrix: yeast
Setting: weak parent motif
Relative to: not given
Reading: higher = stronger binding
Starting sequence: BRCA2 docking peptide (human); CKKRRALDFLSRL; partner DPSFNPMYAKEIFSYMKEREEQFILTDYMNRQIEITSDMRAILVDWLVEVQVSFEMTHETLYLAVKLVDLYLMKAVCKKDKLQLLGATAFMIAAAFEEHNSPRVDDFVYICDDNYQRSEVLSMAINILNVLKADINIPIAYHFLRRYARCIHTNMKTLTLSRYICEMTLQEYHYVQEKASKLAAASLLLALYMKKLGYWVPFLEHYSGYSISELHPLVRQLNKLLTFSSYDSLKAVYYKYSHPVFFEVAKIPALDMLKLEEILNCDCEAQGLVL
Substitution	normalised enrichment score
CKKRRALAFLSRL [D8A]	0.00852
CKKRRALDFASRL [L10A]	0.506
AKKRRALDFLSRL [C1A]	-0.113
CKARRALDFLSRL [K3A]	0.874
CKKRRAADFLSRL [L7A]	0.42
CKKRKALDLLSRL [R5K F9L]	0.971
CKKRRALDFLSRA [L13A]	0.362

Set 3
Target: Protein max, full length (MAX, Homo sapiens, UniProt P61244-2, residues 1-151)
Technique: protein-binding microarray
Form: double-stranded DNA, one strand shown
Matrix: in vitro
Concentration: not given
Setting: k-mer, scored over probes, only values ≥0.25
Reading: higher = stronger binding
Sequence	E-score
CCACGTGA	0.496
CGTGCGCA	0.4
CCGTGCAC	0.337
ACGCTGTC	0.316
ACGCGGAC	0.359
CGCCACGC	0.427
CGTGGTCC	0.392
ACGCGTAT	0.283
CCACGCCA	0.359
ACGCAACA	0.274
GGTGTGAC	0.271
AGTCACGA	0.355
GTGCTCTA	0.256
CCCATGCA	0.365

Further values, each from its own experiment
Molecule	target	test	system	conditions	scale	quantity	result
PhoQ, residues 284 288 289 292 302 303 AANNSF	PhoP, residues 12 14 15 18 19 SYFRT (Escherichia coli, UniProt P23836)	Sort-seq, measured: YFP reporter	E. coli	PhoQ-PhoP variant library, added: 10 µM Mg2+	relative to: high Mg2+ state, higher = stronger signaling	fold induction	0.609

Repeated from above (set 2):
Substitution	normalised enrichment score
CKKRRALAFLSRL [D8A]	0.00852
CKKRRAADFLSRL [L7A]	0.42
CKKRKALDLLSRL [R5K F9L]	0.971
AKKRRALDFLSRL [C1A]	-0.113
